Experimental data pooled from the literature.
Numbered parts are unrelated; each lists some results of a single study.

Block 1
Target: Interferon regulatory factor 5, full length, phosphomimetic (IRF5, Homo sapiens, UniProt Q13568-2, residues 1-514, K96S/S451D/S453D/S456D/S462D)
Method: protein-binding microarray
Form: double-stranded DNA, one strand shown
Sample: in vitro
Concentration: 250 nM
Setting: 60-bp whole probe
With: salmon DNA 0.4 mg/ml
Relative to: random background probes
Reading: higher = stronger binding
Constant ends, left off below: GCCTAGCAC … GTCTTGATTCGCTTGACGCTGCTG
With `GACGGACTGTTTATCCTGACGTGCTAG` the log fluorescence was -0.351 z-score.
For `TTAGATCTCATACTGGATTAGTGCTAG`, the log fluorescence was 0.168 z-score.
`GACGGTCTCGGTATCGGGAGGTGCTAG` has a log fluorescence of 1.15 z-score.
`TCAGTTTTCTAATGTTTTACTGTGCTA` has a log fluorescence of 1.48 z-score.
With `TTAGGTTCCGGTTTCGGTTGGTGCTAG` the log fluorescence was 9.35 z-score.
`GACGATTTCAGTTTCCAGACGTGCTAG` gave a log fluorescence of 1.69 z-score.
`TTAGGTTTCGTCTATCGGTTAGTGCTA` has a log fluorescence of 7.83 z-score.

Block 2
Target: Histone acetyltransferase KAT6A, both winged helices, GST fusion (KAT6A, Homo sapiens, UniProt Q92794, residues 1-181)
Method: protein binding microarray
Form: double-stranded DNA, one strand shown
Sample: in vitro
Concentration: not given
Setting: 8-mer, flanks averaged, mean of 2 arrays, mostly near background
Relative to: not given
Reading: higher = stronger binding
Target sequence (chain): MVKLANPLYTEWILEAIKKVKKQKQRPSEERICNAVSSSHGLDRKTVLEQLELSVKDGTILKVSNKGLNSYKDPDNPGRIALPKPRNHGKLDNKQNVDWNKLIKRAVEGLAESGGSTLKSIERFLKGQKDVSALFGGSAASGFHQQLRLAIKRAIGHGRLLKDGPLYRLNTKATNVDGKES
The E-score of `ATCTGCCC` is reported as -0.0295.
`ATGAAGAA` has an E-score of -0.0449.
The E-score of `ATAGCTAA` is reported as -0.103.
The E-score of `ACGGGTAA` is reported as 0.217.
The E-score of `ACCTGCCT` is reported as -0.217.

Block 3
Target: Centromere-binding protein 1, full length, His-tagged (CBF1, Saccharomyces cerevisiae, UniProt P17106, residues 1-351)
Chain of UniProt P17106 (whole entry, looked up): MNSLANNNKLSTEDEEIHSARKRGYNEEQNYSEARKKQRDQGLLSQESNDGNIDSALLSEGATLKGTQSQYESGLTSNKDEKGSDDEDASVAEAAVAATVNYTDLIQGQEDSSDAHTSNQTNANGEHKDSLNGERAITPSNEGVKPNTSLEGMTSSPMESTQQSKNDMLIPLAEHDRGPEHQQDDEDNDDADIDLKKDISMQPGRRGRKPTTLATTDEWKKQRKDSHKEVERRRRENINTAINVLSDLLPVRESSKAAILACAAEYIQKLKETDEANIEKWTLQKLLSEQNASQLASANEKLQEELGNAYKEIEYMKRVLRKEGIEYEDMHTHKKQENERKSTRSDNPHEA
Method: competition protein-binding microarray
Form: double-stranded DNA, one strand shown
Sample: in vitro
Concentration: 2 µM
Setting: whole 60-bp probe, lowest competitor level
With: Pho4 competitor, 0.05 µM
Reading: higher = stronger binding
`TCGCCTACGCTATTTCACGTTTGTGCTGATAGAAACGTCTTGATTCGCTTGACGCTGCTG` gave a fluorescence intensity of 95.1 a.u.
`ATAACCGAAATGGGACACGTGCTGAAGCGGGGCAGAGTCTTGATTCGCTTGACGCTGCTG` gave a fluorescence intensity of 1500 a.u.
The fluorescence intensity of `TCCAATTGTTAGAACGCCAGTCAGTTGTTTTCTTCGGTCTTGATTCGCTTGACGCTGCTG` is reported as 60 a.u.
For `TTTAGGTACAACATACTCGTGTGTTGCTCACTTTGCGTCTTGATTCGCTTGACGCTGCTG`, the fluorescence intensity was 76.7 a.u.

Other studies, line by line
With `PhoQ, residues 284 288 289 292 302 303 SLANKL` the fold induction was 2.24 (PhoP, residues 12 14 15 18 19 SMASL (Escherichia coli, UniProt P23836); Sort-seq, refers to: YFP reporter; E. coli; PhoQ-PhoP variant library, with: 10 µM Mg2+; relative to: high Mg2+ state, higher = stronger signaling).

Some of these lines once more (block 2):
The E-score of `ACCTGCCT` is reported as -0.217.
